# Measurements gathered from unrelated publications.
# Organism: Escherichia coli
SMILES,assay,test system,conditions,MIC
CO[C@@H](C(N)=O)[C@H](NC(=O)c1ccc(NC(=O)[C@@H](N)Cc2ccc(O)cc2)cc1)C(=O)Nc1ccc(C(=O)Nc2ccc(C(=O)Nc3ccc(C(=O)O)cc3)c(O)c2OC(C)C)cc1,,empty cosmid vector,"16 h, 37 °C",1 µg/mL
N=C(N)NCCC[C@H](NC(=O)[C@H](CCCNC(=N)N)NC(=O)[C@H](Cc1ccccc1)NC(=O)[C@H](CO)NC(=O)[C@H](Cc1ccccc1)NC(=O)[C@H](Cc1c[nH]c2ccccc12)NC(=O)[C@H](Cc1ccccc1)NC(=O)[C@H](CO)NC(=O)[C@H](Cc1ccccc1)NC(=O)[C@H](CCCNC(=N)N)NC(=O)[C@@H](N)CCCNC(=N)N)C(N)=O,,UB1005,"24 h, 37 °C",128 µM
CC[C@H](C)[C@H](NC(=O)[C@@H](CCCNC(=N)N)NC(=O)[C@H](CCCNC(=N)N)NC(=O)[C@@H]1CCCN1C(=O)[C@@H]1CCCN1C(=O)[C@H](CCCNC(=N)N)NC(=O)[C@@H]1CCCN1C(=O)[C@H](CCCNC(=N)N)NC(=O)[C@@H]1CCCN1C(=O)[C@H](CC(C)C)NC(=O)[C@H](Cc1ccccc1)NC(=O)[C@@H]1CCCN1C(=O)[C@@H]1CCCN1C(=O)[C@H](CCCCN)NC(=O)[C@H](CC(=O)O)NC(=O)[C@@H](N)C(C)C)C(=O)N[C@@H](Cc1ccc(O)cc1)C(=O)N[C@@H](CC(N)=O)C(=O)N[C@H](CCCNC(=N)N)C(N)=O,broth microdilution,ATCC 25922,"18 h, 37 °C, 25% MHB2",32 µg/mL
CC[C@H](C)[C@H](NC(=O)[C@H](CCCCN)NC(=O)[C@H](CCCNC(=N)N)NC(=O)[C@H](Cc1c[nH]c2ccccc12)NC(=O)[C@@H](NC(=O)[C@H](CC(N)=O)NC(=O)[C@H](CCCNC(=N)N)NC(=O)[C@@H](NC(=O)[C@H](CCCNC(=N)N)NC(=O)[C@H](CC(N)=O)NC(=O)[C@H](CCCNC(=N)N)NC(=O)[C@H](CC(C)C)NC(=O)[C@H](CCCNC(=N)N)NC(=O)[C@H](CCCNC(=N)N)NC(=O)[C@H](Cc1ccccc1)NC(=O)[C@H](CCCNC(=N)N)NC(=O)CN)[C@@H](C)CC)[C@@H](C)CC)C(=O)NCC(=O)N1CCC[C@H]1C(=O)N[C@H](C(=O)N[C@@H](C)C(=O)NCC(=O)N1CCC[C@H]1C(=O)N[C@@H](CC(C)C)C(=O)N[C@H](C(=O)N[C@@H](CO)C(=O)N[C@@H](CCCNC(=N)N)C(=O)N[C@@H](Cc1ccccc1)C(=O)NCC(=O)O)[C@@H](C)CC)[C@@H](C)CC,CLSI agar dilution,ATCC 25922,"20 h, 37 °C",16 µg/mL
CC[C@H](C)[C@H](NC(=O)[C@@H](CCCNC(=N)N)NC(=O)[C@H](CCCNC(=N)N)NC(=O)[C@@H]1CCCN1C(=O)[C@@H]1CCCN1C(=O)[C@H](CCCNC(=N)N)NC(=O)[C@@H]1CCCN1C(=O)[C@H](CCCNC(=N)N)NC(=O)[C@@H]1CCCN1C(=O)[C@H](CC(C)C)NC(=O)[C@H](Cc1ccc(O)cc1)NC(=O)[C@@H]1CCCN1C(=O)[C@@H]1CCCN1C(=O)[C@H](CCCCN)NC(=O)[C@H](CCCNC(=N)N)NC(=O)[C@@H](N)C(C)C)C(=O)N[C@@H](Cc1ccc(O)cc1)C(=O)N[C@@H](CC(N)=O)C(=O)N[C@H](CCCNC(=N)N)C(N)=O,broth microdilution,ATCC 25922,"18 h, 37 °C, 25% MHB2",8 µg/mL
OB(O)c1cnn(-c2cccc(Cl)c2)c1,bacterial growth,TEM-3 ESBL clinical isolate,without cefotaxime,> 2050 µg/mL
CN[C@@H]1[C@H](O)[C@H](NC)[C@H]2O[C@]3(O)[C@H](O[C@@H]2[C@H]1O)O[C@H](C)C[C@H]3NC(=O)Cc1ccc(Cl)cn1,"microbial growth, broth dilution",K12,,> 200 µg/mL
CC[C@H](C)[C@H](N)C(=O)NCC(=O)N[C@@H](CC(C)C)C(=O)N[C@H](CCC(=O)O)C(=O)N[C@H](C(=O)N[C@H]1CCCCNC(=O)[C@H](CC(N)=O)NC(=O)[C@@H](CC(=O)O)NC(=O)[C@H](Cc2c[nH]cn2)NC(=O)[C@@H](Cc2ccccc2)NC(=O)[C@H]([C@@H](C)CC)NC(=O)[C@@H](CCCN)NC1=O)[C@@H](C)CC,,ATCC 25922,"18 h, 37 °C, 0.3 mM ZnSO4 LB",> 64 µg/mL
CC[C@H](C)[C@H](NC(=O)[C@@H](NC(=O)[C@H](CCCCN)NC(=O)[C@H](CCCCN)NC(=O)[C@@H](NC(=O)[C@H](Cc1c[nH]c2ccccc12)NC(=O)[C@H](CCCCN)NC(=O)[C@@H](NC(=O)[C@H](CC(C)C)NC(=O)[C@H](CCCCN)NC(=O)[C@H](CCCCN)NC(=O)[C@@H](N)C(C)C)[C@@H](C)CC)[C@@H](C)CC)C(C)C)C(N)=O,,,"24 h, 37 °C, Mueller-Hinton broth, FeCl3 4 µM",32 µM
CC(C)(O/N=C(\C(=O)N[C@@H]1C(=O)N(OS(=O)(=O)O)C1(C)C)c1nsc(N)n1)C(=O)O,agar dilution,"08-85, mcr-1",,32 µg/mL
CC(C)C[C@@H](NC(=O)[C@H](NC(=O)[C@@H](CCCCN)NC(=O)[C@@H](CCCCN)NC(=O)[C@@H](CC(C)C)NC(=O)[C@@H](Cc1c[nH]c2ccccc12)NC(=O)[C@@H](CCCCN)NC(=O)[C@@H](CC(C)C)NC(=O)[C@@H](CC(C)C)NC(=O)[C@@H](CCCCN)NC(=O)[C@@H](CCCCN)NC(=O)[C@H](N)C(C)C)C(C)C)C(N)=O,,,"24 h, 37 °C, Mueller-Hinton broth, MgCl2 1 mM",8 µM
CCCCCCCC(=O)N[C@@H](CCN)C(=O)N[C@H](C(=O)N[C@@H](CCN)C(=O)N[C@H]1CCNC(=O)[C@H]([C@@H](C)O)NC(=O)[C@H](CCN)NC(=O)[C@H](CCN)NC(=O)[C@H](CC(C)C)NC(=O)[C@@H](Cc2ccc(Br)cc2)NC(=O)[C@H](CCN)NC1=O)[C@@H](C)O,broth microdilution,"ATCC 25922, colistin-susceptible",,< 0.125 µg/mL
O=C(O)CN(CC(=O)O)CP(=O)(O)O,,VIM-2 producer,"32 µg/mL, MIC of meropenem, together with: meropenem",0.125 µg/mL
CC[C@H](C)[C@H](NC(=O)CNC(=O)[C@@H](NC(=O)CNC(=O)[C@@H](NC(=O)CNC(=O)[C@@H](NC(=O)[C@@H](NC(=O)[C@H](CCC(N)=O)NC(=O)[C@H](CCC(=O)O)NC(=O)[C@@H](NC(=O)[C@H](CC(C)C)NC(=O)[C@H](CCCNC(=N)N)NC(=O)[C@H](Cc1ccccc1)NC(=O)[C@@H](NC(=O)[C@H](CC(N)=O)NC(=O)[C@H](CCCCN)NC(=O)CNC(=O)[C@H](CCSC)NC(=O)[C@H](CCCCN)NC(=O)CNC(=O)[C@H](CC(C)C)NC(=O)[C@H](CCCCN)NC(=O)[C@H](CCCCN)NC(=O)CNC(=O)[C@H](Cc1ccccc1)NC(=O)[C@H](CCCCN)NC(=O)[C@H](CCCCN)NC(=O)[C@H](CC(C)C)NC(=O)[C@H](Cc1c[nH]c2ccccc12)NC(=O)CN)C(C)C)C(C)C)C(C)C)C(C)C)C(C)C)C(C)C)C(=O)N[C@@H](CC(N)=O)C(=O)N[C@@H](C)C(=O)N[C@@H](CC(C)C)C(=O)N[C@@H](CO)C(=O)O,broth microdilution,"K88, Mueller-Hinton broth",37 °C,4.39 µg/mL
CC(C)C[C@H](NC(=O)[C@H](CCCNC(=N)N)NC(=O)CNC(=O)CNC(=O)[C@@H](N)CCCNC(=N)N)C(=O)N[C@H]1CSSC[C@@H](C(=O)N[C@H](C(=O)NCC(=O)N[C@@H](CCCNC(=N)N)C(N)=O)C(C)C)NC(=O)[C@H](C(C)C)NC(=O)[C@@H]2CSSC[C@H](NC(=O)[C@H](Cc3ccc(O)cc3)NC1=O)C(=O)N[C@@H](CCCNC(=N)N)C(=O)N[C@@H](CCCNC(=N)N)C(=O)N[C@@H](CCCNC(=N)N)C(=O)N[C@@H](Cc1ccccc1)C(=O)N2,broth dilution,"K12 BW25113, Mueller-Hinton II broth","18 h, 37 °C",3.91 µg/mL
CC[C@H](C)[C@H](NC(=O)[C@@H](CCCNC(=N)N)NC(=O)[C@H](CCCNC(=N)N)NC(=O)[C@@H]1CCCN1C(=O)[C@@H]1CCCN1C(=O)[C@H](CCCNC(=N)N)NC(=O)[C@@H]1CCCN1C(=O)[C@H](CCCNC(=N)N)NC(=O)[C@@H]1CCCN1C(=O)[C@H](CC(C)C)NC(=O)[C@H](Cc1c[nH]cn1)NC(=O)[C@@H]1CCCN1C(=O)[C@@H]1CCCN1C(=O)[C@H](CCCCN)NC(=O)[C@H](CC(=O)O)NC(=O)[C@@H](N)C(C)C)C(=O)N[C@@H](Cc1ccc(O)cc1)C(=O)N[C@@H](CC(N)=O)C(=O)N[C@H](CCCNC(=N)N)C(N)=O,broth microdilution,MC4100,"18 h, 37 °C, 25% MHB2",4 µg/mL
CCn1ccn(CC)c1=[Se],broth microdilution,carbapenem-resistant BAA-2140,24 h,> 40 µM
CC[C@H](C)[C@H](NC(=O)[C@@H](CCCNC(=N)N)NC(=O)[C@H](CCCNC(=N)N)NC(=O)[C@H](CO)NC(=O)[C@H](Cc1c[nH]c2ccccc12)NC(=O)[C@H](CCCNC(=N)N)NC(=O)[C@@H]1CCCN1C(=O)[C@H](CCCNC(=N)N)NC(=O)[C@@H]1CCCN1C(=O)[C@H](CC(C)C)NC(=O)[C@H](Cc1ccc(O)cc1)NC(=O)[C@@H]1CCCN1C(=O)[C@@H]1CCCN1C(=O)[C@H](CCCCN)NC(=O)[C@H](CC(=O)O)NC(=O)[C@@H](N)C(C)C)C(=O)N[C@@H](Cc1ccc(O)cc1)C(=O)N[C@@H](CC(N)=O)C(=O)N[C@H](CCCNC(=N)N)C(N)=O,broth microdilution,MC4100,"18 h, 37 °C, 25% MHB2",8 µg/mL
N=C(N)NCCC[C@@H]1NC(=O)[C@H](CCCNC(=N)N)NC(=O)[C@@H](CCCNC(=N)N)NC(=O)[C@@H](CCCNC(=N)N)NC(=O)[C@@H](C(c2ccccc2)c2ccccc2)NC(=O)[C@@H](Cc2c[nH]c3ccccc23)NC(=O)[C@@H](C(c2ccccc2)c2ccccc2)NC1=O,,"ATCC BAA-2452, NDM-1 CRE",,8 µg/mL

# Repeated from above:
SMILES,assay,test system,conditions,MIC
CC[C@H](C)[C@H](NC(=O)[C@H](CCCCN)NC(=O)[C@H](CCCNC(=N)N)NC(=O)[C@H](Cc1c[nH]c2ccccc12)NC(=O)[C@@H](NC(=O)[C@H](CC(N)=O)NC(=O)[C@H](CCCNC(=N)N)NC(=O)[C@@H](NC(=O)[C@H](CCCNC(=N)N)NC(=O)[C@H](CC(N)=O)NC(=O)[C@H](CCCNC(=N)N)NC(=O)[C@H](CC(C)C)NC(=O)[C@H](CCCNC(=N)N)NC(=O)[C@H](CCCNC(=N)N)NC(=O)[C@H](Cc1ccccc1)NC(=O)[C@H](CCCNC(=N)N)NC(=O)CN)[C@@H](C)CC)[C@@H](C)CC)C(=O)NCC(=O)N1CCC[C@H]1C(=O)N[C@H](C(=O)N[C@@H](C)C(=O)NCC(=O)N1CCC[C@H]1C(=O)N[C@@H](CC(C)C)C(=O)N[C@H](C(=O)N[C@@H](CO)C(=O)N[C@@H](CCCNC(=N)N)C(=O)N[C@@H](Cc1ccccc1)C(=O)NCC(=O)O)[C@@H](C)CC)[C@@H](C)CC,CLSI agar dilution,ATCC 25922,"20 h, 37 °C",16 µg/mL
O=C(O)CN(CC(=O)O)CP(=O)(O)O,,VIM-2 producer,"32 µg/mL, MIC of meropenem, together with: meropenem",0.125 µg/mL
CC(C)C[C@H](NC(=O)[C@H](CCCNC(=N)N)NC(=O)CNC(=O)CNC(=O)[C@@H](N)CCCNC(=N)N)C(=O)N[C@H]1CSSC[C@@H](C(=O)N[C@H](C(=O)NCC(=O)N[C@@H](CCCNC(=N)N)C(N)=O)C(C)C)NC(=O)[C@H](C(C)C)NC(=O)[C@@H]2CSSC[C@H](NC(=O)[C@H](Cc3ccc(O)cc3)NC1=O)C(=O)N[C@@H](CCCNC(=N)N)C(=O)N[C@@H](CCCNC(=N)N)C(=O)N[C@@H](CCCNC(=N)N)C(=O)N[C@@H](Cc1ccccc1)C(=O)N2,broth dilution,"K12 BW25113, Mueller-Hinton II broth","18 h, 37 °C",3.91 µg/mL
